Published values collected from several papers.
Compare with care: the assays were run in different laboratories.

SMILES | system | conditions | Vd
COC1C=COC2(C)Oc3c(C)c(O)c4c(c3C2=O)C2=NC3(CCN(CC(C)C)CC3)NC2=C(NC(=O)C(C)=CC=CC(C)C(O)C(C)C(O)C(C)C(OC(=O)c2cncnc2)C1C)C4=O (stereo not drawn) | female CD-1 mouse, plasma | intravenous, 5 mg/kg | 2.4 L/kg
O=C1CCC(N2C(=O)c3ccc(N4CCC(C(=O)N5CCC(CCN6CCC(CNC(=O)c7cccc(-c8noc(C(F)(F)F)n8)c7)(c7nc(-c8ccccc8)cs7)CC6)CC5)CC4)cc3C2=O)C(=O)N1 (stereo not drawn) | CD-1 mouse, plasma | oral, 30 mg/kg | 65.5 L/kg
Cc1cc(C(=O)N[C@@H](CC(=O)NC(C)(C)C)C(=O)NCCNC(=O)c2cccc(-c3cc[nH]n3)c2)no1 | mouse, plasma | intravenous, 0.1 mg/kg | 2.39 L/kg
C/C(N)=N/C(=N\S(=O)(=O)c1ccc(C(F)(F)F)cc1)N1C[C@H](c2ccccc2)C(c2ccc(Cl)cc2)=N1 | male C57BL/6 mouse, plasma | intravenous, 5 mg/kg | 2.4 L/kg
COC(=O)C1=CNC=C(C(=O)OC)C1c1ccc(F)c(C(F)(F)F)c1 | male C57BL/6 mouse, plasma | intravenous, 2 mg/kg | 2.19 L/kg
COC1C=COC2(C)Oc3c(C)c(O)c4c(c3C2=O)C2=NC3(CCN(CC(C)C)CC3)NC2=C(NC(=O)C(C)=CC=CC(C)C(O)C(C)C(O)C(C)C(OC(=O)Nc2cscn2)C1C)C4=O (stereo not drawn) | female CD-1 mouse, plasma | intravenous, 5 mg/kg | 1.5 L/kg
Cn1c2cc([S+](C)[O-])sc2c2cnn(Cc3cccc(N)c3)c(=O)c21 (stereo not drawn) | male BALB/c mouse, plasma | intravenous, 1 mg/kg, single dose | 3.14 L/kg
N#CCCC1CCN(C(=S)c2ccc(-c3cc(Cl)ccc3Cl)o2)CC1 | male BALB/c mouse, plasma | intravenous, 5 mg/kg | 2.76 L/kg
CC(=O)N1CCC=C(c2cc3c(Nc4cc5ncsc5cc4F)ncnc3s2)C1 | mouse, plasma | intravenous, 10 mg/kg | 1.78 L/kg
O=C1CCC(N2Cc3cc(C(=O)O)c(F)cc3C2=O)C(=O)N1 (stereo not drawn) | male CD-1 mouse, plasma | intravenous, 1 mg/kg | 1.9 L/kg
Fc1cncc(-c2ccc3[nH]c4ncnc(N[C@H]5CC[C@H](N6CCOCC6)CC5)c4c3c2)c1 | CD-1 mouse, plasma | intravenous, 1 mg/kg | 4.67 L/kg
Cc1cc(NCC(=O)C(C)C)c2nc(N3CCOC[C@H]3C)cc(=O)n2c1 | C57BL/6 mouse, plasma | intraperitoneal, 10 mg/kg, single dose | 2.88 L/kg
Nc1ccc(-c2cc(Cl)c(Cl)c3[nH]c4c(c23)CN(C(=O)CO)CC4)cn1 | C57BL/6 mouse, blood | intravenous, 0.5 mg/kg | 1.03 L/kg
OCC1OC(n2cnc3c(NCc4ccc(Br)s4)ncnc32)C(O)C1O (stereo not drawn) | male CD-1 mouse, blood | intravenous, 1 mg/kg | 2.1 L/kg
O=C(NCCCCc1ccccc1)n1c(=O)oc2cc(-c3ccc(F)cc3)ccc21 | CD-1 mouse, plasma | intraperitoneal, 10 mg/kg | 11.6 L/kg
O=C(C1CC1)N1CCC=C(c2cc3c(Nc4cc5ncsc5cc4F)ncnc3s2)C1 | mouse, plasma | intravenous, 10 mg/kg | 7.93 L/kg
FC(F)(F)Oc1ccc2[nH]c(-c3ccc(OCCN4CCOCC4)cn3)nc2c1 | mouse, plasma | intraperitoneal, 100 mg/kg | 194 mL
CC[C@H](C)[C@H](NC(=O)[C@H](Cc1ccccc1)NC(=O)[C@H](CCC(=O)O)NC(=O)[C@H](CCCCN)NC(=O)[C@H](C)NC(=O)[C@H](C)NC(=O)[C@H](CCC(N)=O)NC(=O)CNC(=O)[C@H](CCC(=O)O)NC(=O)[C@H](CC(C)C)NC(=O)[C@H](Cc1ccc(O)cc1)NC(=O)[C@H](CO)NC(=O)[C@H](CO)NC(=O)[C@@H](NC(=O)[C@H](CC(=O)O)NC(=O)[C@H](CO)NC(=O)[C@@H](NC(=O)[C@H](Cc1ccccc1)NC(=O)[C@@H](NC(=O)CNC(=O)[C@H](CCC(=O)O)NC(=O)[C@H](C)NC(=O)[C@@H](N)Cc1c[nH]cn1)[C@@H](C)O)[C@@H](C)O)C(C)C)C(=O)N[C@@H](C)C(=O)N[C@@H](Cc1c[nH]c2ccccc12)C(=O)N[C@@H](CC(C)C)C(=O)N[C@H](C(=O)N[C@@H](CCCNC(=N)N)C(=O)NCC(=O)N[C@@H](CCCNC(=N)N)C(=O)NCC(=O)O)C(C)C | male CD-1 mouse, plasma | intravenous, 1 mg/kg, single dose | 1.59 L/kg
Fc1cccc(-n2cc(-c3ccccc3)nc2NCc2ccc(C(F)(F)F)c(Br)c2)c1 | male CD-1 mouse, plasma | intraperitoneal, 25 mg/kg, single dose | 6 L/kg
CCC1(CC)CC(=O)N(C2CCOc3ccc(C(=O)NC4CC(C)(C)Oc5ccccc54)cc32)C(=N)N1 (stereo not drawn) | male C57BL/6 mouse, plasma | intravenous, 2 mg/kg | 6.6 L/kg
Cc1cc(C(=O)N[C@@H](CC(=O)NC(C)(C)C)C(=O)NCCNC(=O)c2cc(-c3ccccc3)ccn2)no1 | mouse, plasma | intravenous, 0.1 mg/kg | 1.96 L/kg

Repeated from above:
SMILES | system | conditions | Vd
Nc1ccc(-c2cc(Cl)c(Cl)c3[nH]c4c(c23)CN(C(=O)CO)CC4)cn1 | C57BL/6 mouse, blood | intravenous, 0.5 mg/kg | 1.03 L/kg
Cc1cc(NCC(=O)C(C)C)c2nc(N3CCOC[C@H]3C)cc(=O)n2c1 | C57BL/6 mouse, plasma | intraperitoneal, 10 mg/kg, single dose | 2.88 L/kg
